Results gathered from unrelated publications.
Several values in a cell are separate wells, animals, samples, runs or records. ± gives the spread as reported.
Organism: SARS-CoV-2

Fc1ccc(-c2ccc(CN3CCN(c4cccc5ccoc45)CC3)[nH]2)cc1  EC90 (viral replication; Huh-7-ACE2, USA-WA1/2020): ~6.86 µM
Cc1nn(-c2ccc(Cl)cc2)c2c1C(c1ccc(Cl)cc1Cl)C(C#N)=C(N)O2 (stereo not shown)  viral titre log reduction (Vero C1008; 1 µM; relative to: positive control): 0.0994 log10
COc1cccc(-c2ccc(CN3CCCC(c4nc5ccc(C)cc5c(=O)[nH]4)C3)cc2)c1 (stereo not shown)  efficacy (cytopathic effect; USA_WA1/2020; round 2, 5-point): 99.4%
CN1CCC(=C2c3ccccc3Sc3ccccc32)CC1  EC50 (viral replication, GFP plate reader screen; cell-based): > 100 µM
CN(C)CCOC(C)(c1ccccc1)c1ccccn1 (stereo not shown)  IC50 (viral replication, RT-qPCR; A549 expressing ACE2): > 10 µM
Cc1cccc(C)c1OCC(=O)N[C@@H](Cc1ccccc1)[C@@H](O)C[C@H](Cc1ccccc1)NC(=O)[C@H](C(C)C)N1CCCNC1=O  IC50 (viral replication; Huh-7): > 2 µM
CCCCN(CCCC)CCC(O)c1cc2c(Cl)cc(Cl)cc2c2cc(C(F)(F)F)ccc12 (stereo not shown)  EC50 (viral replication, high-content imaging screen; cell-based): 9.12 µM
COc1ccc2c(c1)c(CC(=O)O)c(C)n2C(=O)c1ccc(Cl)cc1  viral replication inhibition (Vero E6; concentration not given, NYC laboratory): inactive
CC(C)(C)NCc1ccc(Nc2ccnc3cc(Cl)ccc23)cc1O  EC90 (viral replication; 293T-ACE2, USA-WA1/2020): 0.705 µM
CCC(CC)COC(=O)[C@H](C)N[P@](=O)(OC[C@H]1O[C@@](C#N)(c2ccc3c(N)ncnn23)[C@H](O)[C@@H]1O)Oc1ccccc1  EC90 (viral replication, qRT-PCR of viral RNA; Caco-2, Washington): 0.04 ± 0.02 µM
CNC(=O)c1ccc(-c2cnc3ncc(Cc4ccc5ncccc5c4)n3n2)cc1F  selectivity index (Vero C1008; relative to: CC50 over EC50): 2.43
COc1ccc2[nH]c(C(O)c3ccc(Cl)cc3)c(CCNC(C)=O)c2c1 (stereo not shown)  antiviral activity (viral replication, FISH-Flow dsRNA staining; Vero C1008 (VeroE6); 1 µM): inactive
Cc1ccc(NS(=O)(=O)c2cccc(C(=O)NC3CCN(c4ncnc5[nH]cnc45)CC3)c2)cc1  relative infection (A549-ACE2, Wuhan-Hu-1; 22.22 µM; relative to: untreated): 44.4%
Cc1ccc(C(=O)Oc2ccc(C(O)CNC(C)(C)C)cc2OC(=O)c2ccc(C)cc2)cc1 (stereo not shown)  EC50 (viral replication, GFP plate reader screen; cell-based): 8.13 µM
Cc1ccccc1N1CCN(C2CCc3ccccc3C2)CC1 (stereo not shown)  inhibition (viral replication; Vero E6, USA-WA1/2020; 2.5 µM): 42.8%
COc1cc2c(cc1OC)C(=O)C(CC1CCN(Cc3ccccc3)CC1)C2 (stereo not shown)  IC50 (viral replication; Vero E6; inactive set pIC50 4): > 10 µM
C[C@H](CS)C(=O)N1CCC[C@H]1C(=O)O  viral replication inhibition (concentration not given, Paris laboratory): inactive
COc1cc(CNC(=O)CCCC/C=C/C(C)C)ccc1O  IC50 (viral replication; Huh-7): > 2 µM
CC(C)(C)[C@H](NC(=O)C(F)(F)F)C(=O)N1C[C@H]2[C@@H]([C@H]1C(=O)N[C@H](C#N)C[C@@H]1CCNC1=O)C2(C)C  inhibition (viral replication; Vero E6; 0.0002 µM): 1.84% and 4.11%
Cc1noc2c1-c1ccccc1C(c1ccc(Cl)cc1)=N[C@H]2CC(N)=O  viral replication inhibition (concentration not given, Paris laboratory): inactive
COc1ccc(C#Cc2ccccc2)c(CCC(C)N(C)CCc2ccc(OC)c(OC)c2)c1 (stereo not shown)  EC50 (viral replication, high-content imaging screen; BetaCov/Belgium/GHB-03021/2020; cell-based): > 100 µM
Cc1nn(-c2ccc(Cl)cc2)c2c1C(c1c(Cl)cccc1Cl)C(C#N)=C(N)O2 (stereo not shown)  Ct value (RT-qPCR, refers to: viral RNA; Vero; 10 µM; higher means less virus): 25.3 cycles
COC(=O)C1=C(C)NC(C)=C(C(=O)OC)C1c1ccccc1[N+](=O)[O-]  IC50 (viral replication; Huh-7): > 2 µM
O=c1nc([C@@H]2CCCN2)[nH]c2c1oc1ccc(Cl)cc12  viral replication inhibition (concentration not given, Paris laboratory): inactive
Cc1nn(-c2ccc(Cl)cc2)c2c1C(c1ccc(Cl)c(Cl)c1)C(C#N)=C(N)O2 (stereo not shown)  Ct value (RT-qPCR, refers to: viral RNA; Vero; 1 µM; higher means less virus): 23.3 cycles
CCCCN(CCCC)CCCNC(=O)c1ccc2nc(N3CCCCC3)sc2c1  AC50 (cytopathic effect, cell-based CPE; USA_WA1/2020; round 2, 5-point dilution): 11.2 µM
Nc1nc(N)c(N=O)c(OCC2CCCCC2)n1  IC50 (viral replication; Huh-7): > 2 µM
c1ccc(C(c2ccccc2)N2CCN(CCCC3(c4ccccc4)OCCO3)CC2)cc1  EC50 (viral replication, GFP plate reader screen; cell-based): > 20 µM
Cc1nn(-c2ccc(Cl)cc2)c2c1C(c1ccc(-c3ccccc3)cc1)C(C#N)=C(N)O2 (stereo not shown)  viral titre log reduction (Vero C1008; 1 µM; relative to: positive control): 0.0501 log10
CCN(CC)C(=O)C1(c2ccccc2)CC1CN (stereo not shown)  IC50 (viral replication; A549 expressing ACE2; inactive set pIC50 4): > 10 µM
CC(C)C[C@@H]1NC(=O)[C@H](Cc2cn(Cc3ccc(Br)cc3)c3ccccc23)N(C)C(=O)[C@H](CC(C)C)NC(=O)[C@H](CC(C)C)N(C)C(=O)[C@H](CC(C)C)NC(=O)[C@@H](CCC#N)OC(=O)[C@H](C)N(C)C1=O  activity class (viral replication; Vero E6; concentration not given): active
Cc1nn(-c2ccc(Cl)cc2)c2c1C(c1ccc(F)cc1F)C(C#N)=C(N)O2 (stereo not shown)  Ct value (RT-qPCR, refers to: viral RNA; Vero; 10 µM; higher means less virus): 25.5 cycles
CC(C)=CCc1c(O)ccc(C(=O)/C=C/c2ccc(O)cc2)c1O  CPE inhibition (viral replication; Vero E6; 50 µM; relative to: mean of replicates): 25%
CN(C)CCC(c1ccc(Cl)cc1)c1ccccn1 (stereo not shown)  IC50 (viral replication, anti-nucleoprotein immunostaining; Vero E6): > 10 µM
CN(C)c1cccc(C(=O)NCC2CCN(c3cc(-c4ccc(Cl)cc4)n[nH]3)CC2)c1  efficacy (cytopathic effect; USA_WA1/2020; retest, 8-point, duplicates): 19.5%
COc1cc2c(cc1OC)CC(=O)N(CCCN(C)C[C@H]1Cc3cc(OC)c(OC)cc31)CC2  IC50 (viral replication; Huh-7): > 2 µM
O=C(/C=C/c1ccc(O)c(O)c1/C=C/c1ccc(O)c(O)c1)O[C@H](Cc1ccc(O)c(O)c1)C(=O)O  CPE inhibition (viral replication; Vero E6; 50 µM): 25%
Cc1ccc(C)c(Nc2cc(C(=O)NCCCN(C)C3CCCCC3)c3ccccc3n2)c1  AC50 (cytopathic effect, cell-based CPE; USA_WA1/2020; round 2, 5-point dilution): 6.31 µM
CCCSc1ccccc1N1CCN(CCCCn2c(=O)[nH]c3ccccc3c2=O)CC1  EC50 (viral replication, high-content imaging screen; cell-based): > 100 µM
CCn1c2ccccc2c2cc(CN3CCN(Cc4cccc(Cl)c4)CC3)ccc21  maximum response (cytopathic effect; USA_WA1/2020; retest, 8-point, duplicates): 88.3%
Nc1ncnc2c1ncn2[C@@H]1O[C@H](CO)C[C@H]1O  replicon activity (HiBiT luminescence; HeLa replicon; concentration not given, unit not given; relative to: DMSO): 0.569 and 0.461 and 0.77 and 0.819 and 0.5 and 0.593
CCc1ccc(Sc2cc(C(=O)NCCCN3CCC(C)CC3)c3ccccc3n2)cc1  AC50 (cytopathic effect, cell-based CPE; USA_WA1/2020; round 1, 5-point dilution): 3.55 µM
CC(C)/N=c1\cc2n(-c3ccc(Cl)cc3)c3ccccc3nc-2cc1Nc1ccc(Cl)cc1  EC90 (viral replication; Huh-7-ACE2, USA-WA1/2020): 2.33 µM
O=C(O[C@@H]1Cc2c(O)cc(O)cc2O[C@@H]1c1cc(O)c(O)c(O)c1)c1cc(O)c(O)c(O)c1  CPE inhibition (viral replication; Vero E6; 12.5 µM; relative to: mean of replicates): 0%
CCCCCCCCCCCCCCCC(=O)N[C@H]1C[C@@H](O)[C@@H](O)NC(=O)[C@@H]2[C@@H](O)[C@@H](C)CN2C(=O)[C@H]([C@@H](C)O)NC(=O)[C@H]([C@H](O)[C@@H](O)c2ccc(O)cc2)NC(=O)[C@@H]2C[C@@H](O)CN2C(=O)[C@H]([C@@H](C)O)NC1=O  selectivity index (Vero; relative to: CC50 over IC50): 47
COc1cc(C2C(C#N)=C(N)Oc3c2c(C)nn3-c2ccc(Cl)cc2)cc(OC)c1OC (stereo not shown)  Ct value (RT-qPCR, refers to: viral RNA; Vero; 10 µM; higher means less virus): 24.9 cycles
COc1ccc2c(Sc3ccc(Cl)cc3)c(C(=O)NCCCN3CCCCC3)[nH]c2c1  AC50 (cytopathic effect, cell-based CPE; USA_WA1/2020; round 2, 5-point dilution): 12.6 µM
CN(C)C(=N)NC(=N)N  IC50 (viral replication; Huh-7): > 2 µM
Cc1nn(-c2ccc(Cl)cc2)c2c1C(c1ccc(Cl)cc1)C(C#N)=C(N)O2 (stereo not shown)  Ct value (RT-qPCR, refers to: viral RNA; Vero; 1 µM; higher means less virus): 23 cycles
CCN(CC)CCOC1(c2ccccc2)CCN(CCNc2ccccc2)CC1  EC50 (viral replication, high-content imaging screen; cell-based): 22.4 µM
COc1ccc(C(CN(C)C)C2(O)CCCCC2)cc1 (stereo not shown)  IC50 (viral replication, anti-nucleoprotein immunostaining; Vero E6): > 10 µM
CC(C)CC(=O)N[C@H](C(=O)N[C@H](C(=O)N[C@@H](CC(C)C)[C@@H](O)CC(=O)N[C@@H](C)C(=O)N[C@@H](CC(C)C)[C@@H](O)CC(=O)O)C(C)C)C(C)C  viral replication inhibition (Vero E6; concentration not given, NYC laboratory): inactive
CCCOc1ccc(C(=O)CCN2CCCCC2)cc1  EC50 (viral replication, GFP plate reader screen; cell-based): > 100 µM
COc1ccc(C[C@@H]2c3cc(Oc4cc(C[C@@H]5c6cc(O)c(OC)cc6CCN5C)ccc4O)c(OC)cc3CCN2C)cc1  CPE inhibition (viral replication; Vero E6; 12.5 µM; relative to: mean of replicates): 0%
Cc1oc(-c2cccc(Cl)c2)nc1CN1CCCC(C(=O)NCCc2ccc(Cl)cc2)C1 (stereo not shown)  AC50 (cytopathic effect, cell-based CPE; USA_WA1/2020; round 1, 5-point dilution): 12.6 µM

Excerpt of the above:
Cc1nn(-c2ccc(Cl)cc2)c2c1C(c1c(Cl)cccc1Cl)C(C#N)=C(N)O2 (stereo not shown)  Ct value (RT-qPCR, refers to: viral RNA; Vero; 10 µM; higher means less virus): 25.3 cycles
CN1CCC(=C2c3ccccc3Sc3ccccc32)CC1  EC50 (viral replication, GFP plate reader screen; cell-based): > 100 µM
COc1cc(CNC(=O)CCCC/C=C/C(C)C)ccc1O  IC50 (viral replication; Huh-7): > 2 µM
